Published values pooled from the literature.
Compare with care: the assays were run in different laboratories. Several values in a cell are separate wells, animals, samples, runs or records. Numbers after ± are the reported error.

SMILES	target or system	assay	test system	setting	how to read	measurement	value
CCc1nc(Cl)c(-c2c(F)cccc2F)n1-c1ccc(Cl)cc1	QBI293	ELISA, refers to: acetylated alpha-tubulin		1 µM	reference: untreated	fold increase	1.75
Cc1cc(=O)[nH]n1-c1nc(-c2ccc(Cl)cc2)c2c(NC(=O)c3ccccc3)nnc-2[nH]1	NCI60 cell panel	SRB		10 µM		mean growth percent	96.2%
Cc1nc(NC(=O)N2CCC[C@H]2C(N)=O)sc1-c1ccnc(C(C)(C)C(F)(F)F)c1	TCC-SUP	cell growth, CellTiter-Glo		120 h		Hill coefficient	0.979
Cc1cc(C(=O)NC(C)(C)COc2cccc3c2C(N)=NS(=O)(=O)N3)cc(C)n1	human peripheral blood lymphocytes	CBPI, preliminary test		2 µg/mL, 4 h	reference: vehicle control	cytotoxicity	-3%
OC(CCN1CCCCC1)(c1ccccc1)C1CC2C=CC1C2 (stereo not shown)		resting-state EEG	healthy elderly humans	oral, 2 mg, eyes open, LS mean	reference: baseline	EEG power, Beta, change in Fz/Cz	-5.3%
Cn1c(Nc2nc3ccc(C(F)(F)F)cc3s2)nc2cc(C(=O)NCCOCCO)ccc21	SH-SY5Y	RNA-seq, refers to: RYR3 mRNA		5 µM, 5 h	reference: untreated cells	fold change	1.75
C=CCn1c(=O)c2cnc(Nc3ccc(N4CCN(C)CC4)cc3)nc2n1-c1ccc2c(n1)[C@@](O)(CC)CC2	Kuramochi	flow cytometry, refers to: pHH3+γH2Ax+		concentration not given		G2/M cells in subpopulation	9.9%
COc1ccc2c(C)cc(SCC(=O)N(C)C3CCS(=O)(=O)C3)nc2c1 (stereo not shown)	C127 LDR GFP reporter cells	silenced GFP reporter induction, activator, high-content imaging		retest, two-run mean		efficacy	20%
CCn1cc(-c2cc(Cn3ccoc3=N)cc3c2CCN([C@@H](C)c2cc(OC)ccn2)C3=O)c(C(F)(F)F)n1	HT	cell growth		120 h		EC50	0.00834 µM
O=C(/C=C/C=C/C=C/C1CCCCC1)NC1=C[C@@](O)(/C=C/C=C/C=C/C(=O)NC2=C(O)CCC2=O)[C@@H]2O[C@@H]2C1=O	LS-411N	cell growth, CellTiter-Glo		78 h		GI50	7.07 µM
CCCCCCCCCCCCCCCCOP(=O)([O-])OCC[N+](C)(C)C	human iPSC-derived cardiomyocytes	MyBP-C/MYH ratio, plate-normalised SD score		concentration not given, primary screen	direction not given	activity score	13.4
CC[C@H](CO)N(CCN(N=O)[C@H](CC)CO)N=O	Escherichia coli	mutagenicity, Ames plate incorporation	WP2 uvrA pKM101	2500 µg/plate, without S9, methanol		revertant colonies per plate	140 ± 11
CC[C@H](C)N(CC(=O)N(CC(=O)N(CC(=O)N(CC(=O)N(CC(=O)N(CC(=O)N(CC(N)=O)[C@@H](C)c1ccccc1)[C@@H](C)c1ccccc1)[C@@H](C)CC)[C@@H](C)c1ccccc1)[C@@H](C)c1ccccc1)[C@@H](C)CC)C(=O)CNCCCCN	THP-1 macrophages	confocal immunocytochemistry		50 µM, 72 h, together with: LPS 2 ng/mL		RAGE surface expression	decreased
COc1c(-c2coc3cc4c(cc3c2=O)CC(O)C(C)(C)O4)ccc2c1C=CC(C)(C)O2 (stereo not shown)	human iPSC-derived cardiomyocytes	MyBP-C/MYH ratio, plate-normalised SD score		concentration not given, primary screen	direction not given	activity score	9.2
CC(C)C[C@H](NC(=O)C[C@H](O)[C@H](CC(C)C)NC(=O)[C@H](Cc1c[nH]cn1)NC(=O)CNC(=O)[C@@H](NC(=O)[C@H](C)NC(=O)[C@H](Cc1c[nH]c2ccccc12)NC(=O)[C@H](CCC(N)=O)NC(=O)[C@@H](Cc1ccccc1)NC(=O)COCCOCCNC(=O)CN1CCN(CC(=O)O)CCN(CC(=O)O)CCN(CC(=O)O)CC1)C(C)C)C(N)=O [lutetium-177 labelled]			female BALB/c nu/nu mice, muscle	intravenous, 50 pmol, 1 h		tissue uptake	0.1 ± 0.03 %ID/g
CCC[C@@H]1C[C@@H](C(=O)N[C@@H]([C@H]2O[C@H](SC)[C@H](O)[C@@H](O)[C@H]2O)[C@@H](C)O)N(C)C1	human iPSC-derived cardiomyocytes	MyBP-C/MYH ratio, plate-normalised SD score		concentration not given, primary screen	direction not given	activity score	-5.5
CSc1cc(Oc2ccnc3[nH]c(=O)cnc23)ccc1NC(=O)Nc1cc(C(C)(C)C)nn1-c1ccccc1	patient-derived cell clone A (sample B)	reverse phase protein array, refers to: p53 pSer15	human	1 µM, 4 h	reference: DMSO	phospho/total p53 ratio	0.9
N#Cc1ccc2c(c1)[C@H]1CCCN(C(=O)c3ccc4[nH]cnc4c3)[C@H]1C2			human clinical trial	oral, 240 mg once daily		ACTH change from baseline	6.2 pmol/L
NCCOc1cc(C(=O)Nc2cc(OCCN)c3ccccc3n2)nc(C(=O)Nc2cc(OCCN)c3ccccc3n2)c1	U2OS	cell viability, CellTiter-Glo		72 h	reference: IC50 U2OS over WI-38	selectivity ratio	0.7
COc1ccc2c(c1)c1ccc3c(c1n2C)C(=O)C=CC3=O	C127 LDR GFP reporter cells	silenced GFP reporter induction, activator, high-content imaging		retest, two-run mean		efficacy	71%
CN1CCC(=C2c3ccccc3Sc3ccccc32)CC1	human iPSC-derived cardiomyocytes	MyBP-C/MYH ratio, plate-normalised SD score		concentration not given, primary screen	direction not given	activity score	4.1
C=CC1=C(C)c2cc3[n-]c(cc4nc(cc5[n-]c(cc1n2)c(C)c5C=C)C(C)=C4CCC(=O)O)c(CCC(=O)O)c3C.[Zn+2]	SH-SY5Y	RNA-seq, refers to: FOSL2 mRNA		5 µM, 5 h	reference: untreated cells	fold change	1.58
Cn1cc(Nc2nccc(-c3ccc4c(c3)CN(C3COC3)CC[C@H]4NC(=O)c3cn(C(C)(C)C)nn3)n2)cn1	mouse splenic B cells	refers to: IL-7 signalling pathway		30 mg/kg, IgD-activated in vivo	reference: vehicle, direction not given	pathway activation z-score	0.277

SMILES	target or system	assay	test system	setting	how to read	measurement	value
CCCc1cc(=O)nc(SCCCC(=O)Nc2ccc(F)cc2)[nH]1	cells, COS-1, expressing proMMP-9	cell migration, 2D collagen dot migration		50 µM, 18 h		inhibition	68 ± 3%
CC(C)[C@H](NC(=O)[C@@H](NC(=O)CCCc1cn(CC(O)CN2CCN(CC(=O)O)CCN(CC(=O)O)CCN(CC(=O)O)CC2)nn1)[C@@H](C)O)C(=O)N[C@@H](CCCNC(=N)N)C(=O)N[C@H](C(=O)N[C@@H](CO)C(=O)N[C@@H](C)C(=O)N[C@@H](CC(=O)O)C(=O)O)[C@@H](C)O (stereo partly shown)			healthy male humans, plasma	intravenous bolus, 0.08 mmol/kg, 0 h		AUC(0-t)	1950 ± 322 µg·h/mL
COc1cnc2cccc(N3CCc4c(cc(Cn5ccnc5C)cc4-c4cn(C)nc4C(F)(F)F)C3=O)c2c1	NCI-H446	cell growth, inhibitor		120 h		EC50	> 30 µM
C[C@@H]1CC[C@H]2C(C)(C)[C@H]3C[C@@]12CC[C@@]3(C)O	human iPSC-derived cardiomyocytes	MyBP-C/MYH ratio, plate-normalised SD score		concentration not given, primary screen	direction not given	activity score	9.4
CC(C)C(=O)N1CCN(c2ccc(NC(=O)c3ccc([N+](=O)[O-])o3)cc2Cl)CC1	C127 LDR GFP reporter cells	silenced GFP reporter induction, activator, high-content imaging		retest, two-run mean		efficacy	69%
COc1cc(NC(C)CCCN)c2ncccc2c1 (stereo not shown)	MYBPC3 iPSC cardiomyocytes	plate-normalised		concentration not given, 24 h, hit retest		MyBP-C level	1.7%
CCOc1c([C@H](C)n2nc(C)c3c(N)ncnc32)cc(Cl)c(F)c1[C@@H]1CNC(=O)C1			human Hodgkin lymphoma patients	oral, 30 mg, day 15, geometric mean		AUC(0-tau)	19.2 µM·h
Cc1c(NC(C)C)c(=O)n(-c2ccccc2)n1C	human iPSC-derived cardiomyocytes	MyBP-C/MYH ratio, plate-normalised SD score		concentration not given, primary screen	direction not given	activity score	-4.3
Cc1nn(-c2nc3c(F)cc(F)cc3s2)c(O)c1C(c1ccc(C(F)(F)F)cc1)c1c(C)nn(-c2nc3c(F)cc(F)cc3s2)c1O	THP1-Dual	western blot		40 µM, together with: HT-DNA	reference: DMSO	phospho-IRF3 to IRF3 ratio	0.084 and 0.117 and 0.145
Clc1ccc(C2(c3ccc(-c4cn[nH]c4)cc3)CCNCC2)cc1	primary CLL cells	flow cytometry	human	0.01 µM, 24 h	reference: DMSO, higher = more protein	Bcl-2 MFI	3860 a.u.
CC/C(=N\NC(=O)NCc1cccc(O)c1)c1ccc(O)c(C)c1O	SK-OV-3	Western blot	2D culture	10 µM, 1 h, unit not given	reference: β-actin	TAZ protein level	1.29 ± 0.14
C=CC(=O)N1[C@@H](c2ccc3c(c2)OCO3)c2[nH]c3ccccc3c2C[C@H]1C(=O)NC	rat DRG neurons			0.04115 µM, 48 h, together with: vincristine 40 nM		mean neuron degeneration	78.9%
S=C(Nc1ccccc1)c1ccccn1	C127 LDR GFP reporter cells	silenced GFP reporter induction, activator, high-content imaging		retest, two-run mean		efficacy	113%
CC(C)C[C@H](NC(=O)C[C@H](O)[C@H](CC(C)C)NC(=O)[C@H](Cc1c[nH]cn1)NC(=O)CNC(=O)[C@@H](NC(=O)[C@H](C)NC(=O)[C@H](Cc1c[nH]c2ccccc12)NC(=O)[C@H](CCC(N)=O)NC(=O)[C@@H](Cc1ccccc1)NC(=O)COCCOCCNC(=O)CCC(C(=O)O)N1CCN(CC(=O)O)CCN(CC(=O)O)CCN(CC(=O)O)CC1)C(C)C)C(N)=O (stereo partly shown) [lutetium-177 labelled]			BALB/c nu/nu mice, bladder	intravenous, 50 pmol, 1 h, together with: PA 300 µg		tissue uptake	61 ± 29 %ID/g
COc1cc2ncnc(Nc3ccc(Oc4ccccc4)c(C)c3C)c2cc1OC.Cl	LoVo (KRAS G13D)	cell viability, resazurin		3 µM, 72 h, together with: trametinib 0 nM	reference: DMSO	average fractional effect	28%
COc1ccc(-n2nc(C(C)=O)s/c2=N\N=C(/C)c2ccc(NC(=O)c3ccc(C)cc3)cc2)cc1	MCF7			10 µM		viability	2.89%
CCn1cc(-c2cc(Cn3ccnc3)cc3c2CCN([C@H](c2cc(OC)ccn2)C2CC2)C3=O)c(C(F)(F)F)n1	KYM1	cell growth		120 h		EC50	3.62 µM
C[C@H]1C[C@H]2CSC(N)=N[C@@]2(c2nc(NC(=O)c3ccc(OC(F)F)cn3)cs2)CO1		refers to: Aβx-40	healthy adults, plasma	3 mg single dose, 8 h post-dose	reference: placebo	percent change from baseline	-39.8%
Cc1c(C(=O)O)ccc2c3n(nc12)[C@@H]1[C@H](C3)N(CC2CC2)[C@@]2(C(=O)Nc3cc(Cl)ccc32)[C@H]1c1cccc(Cl)c1F	RKO (MDM2 non-amplified)	cell growth, alamarBlue		120 h		IC50	0.059 µM
Nc1ncnc2c1ncn2[C@@H]1O[C@H](COP(=O)(O)OP(=O)(O)OP(=O)(O)O)[C@@H](O)[C@H]1O	THP-1 wild type, PMA-differentiated, Pam3CSK4-primed	inducer, ELISA		concentration not given		IL-1β release	3340 pg/mL and 3160 pg/mL and 2610 pg/mL
Nc1cccc2c1C(=O)N(C1CCC(=O)NC1=O)C2=O (stereo not shown)	bone marrow CD138+ myeloma cells	XTT		1.6 µM, mean of three patients		viability	17%
N=C(N)c1ccc(OCCCCCOc2ccc(C(=N)N)cc2)cc1	human iPSC-derived cardiomyocytes	MyBP-C/MYH ratio, plate-normalised SD score		concentration not given, primary screen	direction not given	activity score	3.7
Cn1cc(-c2ccc(-c3cncc(Cl)c3N3CCC4(CCNC4=O)CC3)cc2)cn1	COLO 205	microarray, refers to: c-Jun		concentration not given, 4 h	reference: untreated cells	fold change in expression	2.85

For quick reference, copied from above:
SMILES	target or system	assay	test system	setting	how to read	measurement	value
CCc1nc(Cl)c(-c2c(F)cccc2F)n1-c1ccc(Cl)cc1	QBI293	ELISA, refers to: acetylated alpha-tubulin		1 µM	reference: untreated	fold increase	1.75
COc1ccc2c(c1)c1ccc3c(c1n2C)C(=O)C=CC3=O	C127 LDR GFP reporter cells	silenced GFP reporter induction, activator, high-content imaging		retest, two-run mean		efficacy	71%
Cc1cc(C(=O)NC(C)(C)COc2cccc3c2C(N)=NS(=O)(=O)N3)cc(C)n1	human peripheral blood lymphocytes	CBPI, preliminary test		2 µg/mL, 4 h	reference: vehicle control	cytotoxicity	-3%
Clc1ccc(C2(c3ccc(-c4cn[nH]c4)cc3)CCNCC2)cc1	primary CLL cells	flow cytometry	human	0.01 µM, 24 h	reference: DMSO, higher = more protein	Bcl-2 MFI	3860 a.u.
Nc1ncnc2c1ncn2[C@@H]1O[C@H](COP(=O)(O)OP(=O)(O)OP(=O)(O)O)[C@@H](O)[C@H]1O	THP-1 wild type, PMA-differentiated, Pam3CSK4-primed	inducer, ELISA		concentration not given		IL-1β release	3340 pg/mL and 3160 pg/mL and 2610 pg/mL
CCC[C@@H]1C[C@@H](C(=O)N[C@@H]([C@H]2O[C@H](SC)[C@H](O)[C@@H](O)[C@H]2O)[C@@H](C)O)N(C)C1	human iPSC-derived cardiomyocytes	MyBP-C/MYH ratio, plate-normalised SD score		concentration not given, primary screen	direction not given	activity score	-5.5
C=CC1=C(C)c2cc3[n-]c(cc4nc(cc5[n-]c(cc1n2)c(C)c5C=C)C(C)=C4CCC(=O)O)c(CCC(=O)O)c3C.[Zn+2]	SH-SY5Y	RNA-seq, refers to: FOSL2 mRNA		5 µM, 5 h	reference: untreated cells	fold change	1.58
